{"data": "Experimental data of several laboratories", "note": "± marks the error that the study gave."}
{"SMILES": "CC1(C)C=Cc2c(ccc3c2[N+]([O-])=C2C(C)(C)[C@@H]4C[C@]56CCCN5C(=O)[C@]4(NC6=O)[C@H]4N5C(=O)[C@@]67CCCN6C(=O)[C@@]56[C@H](c5c([nH]c8c9c(ccc58)OC(C)(C)C=C9)C(C)(C)[C@@H]6C7)[C@]234)O1", "target or system": "Candida albicans", "assay": "cell growth, XTT", "system": "DAY185", "scale": "no inhibition up to value", "quantity": "viability", "value": "> 200 µM"}
{"SMILES": "NC(=O)N1c2ccccc2C=Cc2ccccc21", "target or system": "Danio rerio", "system": "zebrafish, male", "conditions": "waterborne exposure, 1 µg/L nominal, 7 d", "quantity": "plasma concentration", "value": "25.5 ng/mL"}
{"SMILES": "CCOC(CN(CC(OCC)OCC)N=O)OCC", "target or system": "Salmonella typhimurium, Escherichia coli", "assay": "preincubation Ames test", "conditions": "concentration not given, with and without S9", "quantity": "mutagenicity", "value": "positive"}
{"SMILES": "CCOc1ccc2c(c1)C(C)=CC(C)(C)N2", "target or system": "Arenicola sp.", "system": "spiked seawater with 0.01% acetone", "conditions": "10 days", "quantity": "LC50", "value": "1.93 µg/mL"}
{"SMILES": "CN(CCCC(=O)c1cccnc1)N=O", "target or system": "Salmonella typhimurium", "system": "TA98", "conditions": "added: human lung microsomes 0.5 mg + NADPH", "scale": "reference: DMSO", "quantity": "lowest mutagenic concentration", "value": "0.1 µM"}
{"SMILES": "CC[C@H](C)[C@@H](CC(=O)N[C@@H](CCC(=O)O)CC(=O)O)NC(=O)C[C@@H](NC(=O)C[C@H](CCCN)NC(=O)C[C@H](Cc1c[nH]c2ccccc12)NC(=O)C[C@@H](NC(=O)C[C@H](CCC(=O)O)NC(=O)C[C@H](Cc1c[nH]c2ccccc12)NC(=O)C[C@@H](NC(=O)C[C@@H](N)CCCN)C(C)C)C(C)C)C(C)C", "target or system": "HIV-1", "assay": "MTT", "system": "MT2, IIIB", "conditions": "5 days", "scale": "reference: CC50 over EC50", "quantity": "selectivity index", "value": 1.8}
{"SMILES": "O=NN1CC2CC(C1)c1cc3nccnc3cc12", "target or system": "Salmonella typhimurium, Escherichia coli", "assay": "preincubation Ames test", "conditions": "concentration not given, with and without S9", "quantity": "mutagenicity", "value": "positive"}
{"SMILES": "c1ccc(-c2ccccc2-c2ccccc2)cc1", "target or system": "Cyprinus carpio", "assay": "everted gut sac", "system": "intestine", "conditions": "concentration not given, 24 h, 23 °C", "quantity": "concentration in mucosal solution", "value": "24800 ± 6200 ng/mL"}
{"SMILES": "CCN(N=O)c1ccccc1", "target or system": "Salmonella typhimurium, Escherichia coli", "assay": "preincubation Ames test", "conditions": "concentration not given, with and without S9", "quantity": "mutagenicity", "value": "positive"}
{"SMILES": "CN[C@@](C)(C[18F])C(=O)O", "system": "SCID mouse U87 xenograft, heart", "conditions": "60 min, post injection", "quantity": "tissue uptake", "value": "4.5 ± 1 %ID/g"}
{"SMILES": "CC(C)N(N=O)C(C)C", "target or system": "Salmonella typhimurium, Escherichia coli", "assay": "preincubation Ames test", "conditions": "concentration not given, with and without S9", "quantity": "mutagenicity", "value": "positive"}
{"SMILES": "C[C@H]1[C@@H](O)O[C@@H]2O[C@@]3(C)CC[C@H]4[C@H](C)CC[C@@H]1[C@@]24OO3", "target or system": "Plasmodium falciparum", "system": "Vero, 3D7 chloroquine-sensitive", "scale": "reference: CC50 Vero over IC50 parasite", "quantity": "selectivity ratio", "value": 5500}
{"SMILES": "Nc1nc2ncc(CN(N=O)c3ccc(C(=O)NC(CCC(=O)O)C(=O)O)cc3)nc2c(=O)[nH]1 (stereo not shown)", "target or system": "Salmonella typhimurium, Escherichia coli", "assay": "preincubation Ames test", "conditions": "concentration not given, with and without S9", "quantity": "mutagenicity", "value": "negative"}
{"SMILES": "COc1ccc(C(c2ccc(OC)cc2)C(Cl)(Cl)Cl)cc1", "target or system": "Cyprinus carpio", "assay": "everted gut sac", "system": "intestine", "conditions": "concentration not given, 24 h, 23 °C", "quantity": "concentration in mucosal solution", "value": "57600 ± 4000 ng/mL"}
{"SMILES": "Cc1cc(NC2CCCCC2)nc(-n2nc(C)cc2C)n1", "target or system": "Plasmodium falciparum", "system": "3D7 stage III-V gametocytes", "scale": "reference: SH-SY5Y IC50 over gametocyte IC50", "quantity": "selectivity ratio", "value": "~7.8 fold"}
{"SMILES": "C[C@H]1CN(N=O)CCc2ccc(Cl)cc21", "target or system": "Salmonella typhimurium, Escherichia coli", "assay": "preincubation Ames test", "conditions": "concentration not given, with and without S9", "quantity": "mutagenicity", "value": "positive"}
{"SMILES": "COc1ccc(S(=O)(=O)N(CC(=O)O)c2ccc(N(CC(=O)O)S(=O)(=O)c3ccc(OC)cc3)c3ccccc23)cc1", "target or system": "Salmonella typhimurium", "system": "TA98", "conditions": "concentration not given, added: rat liver S9", "scale": "reference: vehicle", "quantity": "revertant fold increase", "value": "> 2 fold"}
{"SMILES": "Nc1ncnc2c([C@@H]3N[C@H](CO)[C@@H](O)[C@H]3O)c[nH]c12", "target or system": "Zika virus", "system": "Huh-7, PRVABC-59", "conditions": "unit not given", "scale": "reference: CC50 over EC90", "quantity": "SI90", "value": 14.9}
{"SMILES": "CC[C@H](C)[C@H](NC(=O)[C@H](Cc1c[nH]c2ccccc12)NC(=O)[C@H](CCC(=O)O)NC(=O)[C@H](CCCCN)NC(=O)[C@@H](NC(=O)[C@H](CCCCN)NC(=O)[C@@H](N)CC(N)=O)C(C)C)C(=O)N[C@@H](CCCCN)C(=O)N[C@@H](Cc1ccc(O)cc1)C(=O)N[C@@H](CC(C)C)C(=O)N[C@@H](CCCCN)C(=O)N[C@@H](CO)C(=O)N[C@@H](CC(C)C)C(=O)N[C@@H](Cc1ccccc1)C(=O)N[C@@H](CO)C(=O)N[C@H]1CCOC1=O", "target or system": "Staphylococcus aureus", "system": "ATCC 25923, resting cell suspension", "conditions": "200 µg/mL, 1 h, pH 7.0, 37 °C", "quantity": "remaining peptide", "value": "89.2%"}
{"SMILES": "O=C(NCCN1CCCC1)c1cc(-c2ccc(CN3CCOCC3)cc2)nc2ccc(F)cc12", "target or system": "Plasmodium falciparum", "system": "human, whole blood", "conditions": "oral, 400 mg, malaria volunteer infection study", "quantity": "AUC(0-t)", "value": "9470 ng·h/mL"}
{"SMILES": "CCN(CC)CCCC(C)Nc1ccnc2cc(Cl)ccc12 (stereo not shown)", "target or system": "Plasmodium falciparum", "system": "Vero, K1 chloroquine-resistant", "scale": "reference: Vero CC50 over parasite IC50", "quantity": "selectivity index", "value": 1810}
{"SMILES": "O=[N+]([O-])c1ccc(Oc2ccc(Cl)cc2Cl)cc1", "target or system": "Cyprinus carpio", "assay": "everted gut sac", "system": "intestine", "conditions": "concentration not given, 24 h, 23 °C", "quantity": "concentration in serosal solution", "value": "303000 ± 134000 ng/mL"}
{"note": "Repeated from above:"}
{"SMILES": "c1ccc(-c2ccccc2-c2ccccc2)cc1", "target or system": "Cyprinus carpio", "assay": "everted gut sac", "system": "intestine", "conditions": "concentration not given, 24 h, 23 °C", "quantity": "concentration in mucosal solution", "value": "24800 ± 6200 ng/mL"}
{"SMILES": "CCN(N=O)c1ccccc1", "target or system": "Salmonella typhimurium, Escherichia coli", "assay": "preincubation Ames test", "conditions": "concentration not given, with and without S9", "quantity": "mutagenicity", "value": "positive"}
{"SMILES": "CN[C@@](C)(C[18F])C(=O)O", "system": "SCID mouse U87 xenograft, heart", "conditions": "60 min, post injection", "quantity": "tissue uptake", "value": "4.5 ± 1 %ID/g"}
